Measurements pooled from the literature.
PPO3: PPO3 (Agaricus bisporus, UniProt C7FF04)
Chain of UniProt C7FF04 (whole entry, looked up): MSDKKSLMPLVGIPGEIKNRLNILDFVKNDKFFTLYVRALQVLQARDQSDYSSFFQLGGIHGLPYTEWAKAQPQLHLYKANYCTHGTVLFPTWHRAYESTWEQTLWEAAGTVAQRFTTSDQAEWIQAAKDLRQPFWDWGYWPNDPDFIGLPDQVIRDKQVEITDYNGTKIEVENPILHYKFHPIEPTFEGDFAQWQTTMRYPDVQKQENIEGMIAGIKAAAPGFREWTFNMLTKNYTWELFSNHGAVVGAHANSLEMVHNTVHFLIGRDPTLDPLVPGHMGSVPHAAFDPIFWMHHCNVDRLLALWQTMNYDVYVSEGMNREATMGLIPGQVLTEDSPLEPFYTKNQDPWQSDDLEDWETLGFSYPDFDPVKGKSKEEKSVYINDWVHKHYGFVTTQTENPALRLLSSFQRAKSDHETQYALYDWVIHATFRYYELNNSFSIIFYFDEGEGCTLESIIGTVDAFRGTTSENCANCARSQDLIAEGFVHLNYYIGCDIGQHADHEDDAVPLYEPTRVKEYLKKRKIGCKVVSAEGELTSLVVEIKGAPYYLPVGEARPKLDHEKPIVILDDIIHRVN
SRC: Proto-oncogene tyrosine-protein kinase Src (SRC, Homo sapiens, UniProt P12931)
Chain of UniProt P17302 (whole entry, looked up): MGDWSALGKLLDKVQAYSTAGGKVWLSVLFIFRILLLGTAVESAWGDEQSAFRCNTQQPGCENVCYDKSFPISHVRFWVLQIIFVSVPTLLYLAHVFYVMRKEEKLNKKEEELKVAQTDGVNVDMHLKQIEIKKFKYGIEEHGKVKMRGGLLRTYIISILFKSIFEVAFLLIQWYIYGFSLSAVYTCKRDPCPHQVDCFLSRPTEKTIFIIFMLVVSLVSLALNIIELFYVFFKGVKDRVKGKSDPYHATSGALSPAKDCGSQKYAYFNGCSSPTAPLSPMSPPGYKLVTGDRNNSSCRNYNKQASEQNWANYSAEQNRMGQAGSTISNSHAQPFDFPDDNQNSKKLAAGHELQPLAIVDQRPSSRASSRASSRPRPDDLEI
Chain of UniProt P07333 (whole entry, looked up): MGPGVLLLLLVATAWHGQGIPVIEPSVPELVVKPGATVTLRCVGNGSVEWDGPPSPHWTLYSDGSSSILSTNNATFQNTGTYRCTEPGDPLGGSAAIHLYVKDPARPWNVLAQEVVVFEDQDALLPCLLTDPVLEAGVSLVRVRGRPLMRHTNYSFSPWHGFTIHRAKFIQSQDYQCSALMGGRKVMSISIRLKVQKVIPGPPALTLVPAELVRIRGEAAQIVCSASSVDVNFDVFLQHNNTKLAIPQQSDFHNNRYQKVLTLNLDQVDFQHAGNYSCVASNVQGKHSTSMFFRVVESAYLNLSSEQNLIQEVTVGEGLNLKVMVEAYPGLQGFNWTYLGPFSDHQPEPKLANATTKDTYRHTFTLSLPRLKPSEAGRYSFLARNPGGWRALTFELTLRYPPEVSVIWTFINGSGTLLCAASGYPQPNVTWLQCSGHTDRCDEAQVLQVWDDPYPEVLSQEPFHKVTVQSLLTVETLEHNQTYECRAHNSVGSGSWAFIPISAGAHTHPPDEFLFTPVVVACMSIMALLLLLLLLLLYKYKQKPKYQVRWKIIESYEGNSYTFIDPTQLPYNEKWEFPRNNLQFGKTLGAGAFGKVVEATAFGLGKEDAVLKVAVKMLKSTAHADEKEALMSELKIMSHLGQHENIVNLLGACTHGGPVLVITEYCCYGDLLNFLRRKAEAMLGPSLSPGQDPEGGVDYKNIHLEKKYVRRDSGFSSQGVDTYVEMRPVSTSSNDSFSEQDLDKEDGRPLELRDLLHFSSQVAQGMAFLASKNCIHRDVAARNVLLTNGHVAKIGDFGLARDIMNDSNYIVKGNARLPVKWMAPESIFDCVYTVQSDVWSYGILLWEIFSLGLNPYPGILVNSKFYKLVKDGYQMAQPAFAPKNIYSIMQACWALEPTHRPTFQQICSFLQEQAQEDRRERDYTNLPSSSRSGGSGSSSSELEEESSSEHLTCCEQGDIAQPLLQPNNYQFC
Chain of UniProt P14780 (whole entry, looked up): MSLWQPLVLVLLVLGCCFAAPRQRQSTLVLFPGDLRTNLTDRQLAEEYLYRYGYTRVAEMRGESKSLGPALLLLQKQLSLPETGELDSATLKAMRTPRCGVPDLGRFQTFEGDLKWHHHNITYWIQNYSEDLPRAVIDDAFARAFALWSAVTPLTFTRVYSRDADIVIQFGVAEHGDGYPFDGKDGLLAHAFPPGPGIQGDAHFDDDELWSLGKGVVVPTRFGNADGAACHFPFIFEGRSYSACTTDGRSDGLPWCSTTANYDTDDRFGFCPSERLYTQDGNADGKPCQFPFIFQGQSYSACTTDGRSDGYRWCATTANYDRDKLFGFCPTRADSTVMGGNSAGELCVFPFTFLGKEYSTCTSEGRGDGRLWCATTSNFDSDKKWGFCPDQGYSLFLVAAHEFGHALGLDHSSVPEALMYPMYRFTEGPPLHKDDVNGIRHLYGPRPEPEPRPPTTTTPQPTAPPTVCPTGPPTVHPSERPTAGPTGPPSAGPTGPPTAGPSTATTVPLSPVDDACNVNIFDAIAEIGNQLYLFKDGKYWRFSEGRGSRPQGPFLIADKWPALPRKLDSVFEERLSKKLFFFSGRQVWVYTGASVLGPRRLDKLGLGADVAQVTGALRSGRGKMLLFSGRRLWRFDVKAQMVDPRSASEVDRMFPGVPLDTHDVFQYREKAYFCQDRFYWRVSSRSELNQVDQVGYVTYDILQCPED
Chain of UniProt P41240 (whole entry, looked up): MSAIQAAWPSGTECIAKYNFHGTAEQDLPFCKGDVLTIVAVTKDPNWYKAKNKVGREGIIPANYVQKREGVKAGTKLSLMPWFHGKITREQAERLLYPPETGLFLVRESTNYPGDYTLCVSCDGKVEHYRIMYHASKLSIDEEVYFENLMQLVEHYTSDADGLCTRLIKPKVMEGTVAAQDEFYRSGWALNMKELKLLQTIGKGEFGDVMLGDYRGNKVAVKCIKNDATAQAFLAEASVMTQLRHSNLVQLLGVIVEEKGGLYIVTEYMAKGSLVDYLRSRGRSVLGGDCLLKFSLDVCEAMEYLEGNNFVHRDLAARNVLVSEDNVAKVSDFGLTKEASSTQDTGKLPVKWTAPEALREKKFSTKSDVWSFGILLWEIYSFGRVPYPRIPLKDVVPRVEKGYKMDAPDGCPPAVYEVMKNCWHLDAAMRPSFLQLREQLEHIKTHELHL

With `CC(=O)N[C@@H](Cc1c[nH]c2ccccc12)C(=O)N[C@@H](Cc1c[nH]c2ccccc12)C(=O)N[C@@H](Cc1c[nH]c2ccccc12)C(=O)N[C@@H](Cc1c[nH]c2ccccc12)C(=O)N[C@@H](Cc1c[nH]c2ccccc12)C(=O)N[C@@H](Cc1c[nH]c2ccccc12)C(=O)N[C@@H](Cc1c[nH]c2ccccc12)C(=O)NCCCC[C@@H]1NC(=O)[C@H](CCCNC(=N)N)NC(=O)[C@H](CCCNC(=N)N)NC(=O)[C@H](CCCNC(=N)N)NC(=O)[C@H](CCCNC(=N)N)NC(=O)[C@H](CCCNC(=N)N)NC1=O` the remaining activity was 69.7% (CSK (Homo sapiens, UniProt P41240); kinase activity, Reaction Biology radiometric; concentration not given, added: ATP 200 µM; relative to: DMSO).
The remaining activity of `CC(C)C[C@H](NC(=O)[C@H](CCCNC(=N)N)NC(=O)[C@@H](N)CS)C(=O)N[C@@H](CC(N)=O)C(=O)O` is reported as 86.2% (PPO3; enzyme activity, inhibitor; 50 µM).
With `CCCCCCCCCCCCCCCc1ccc(COP(=O)(O)O)cc1` the remaining activity was 85.2% (Autotaxin (ENPP2, Homo sapiens, UniProt Q13822); inhibitor; 10 µM, 2 h, added: FS-3 1 µM; relative to: control).
`N=C(N)NCCC[C@@H]1NC(=O)[C@H](Cc2c[nH]c3ccccc23)NC(=O)[C@H](CCCNC(=N)N)NC(=O)[C@H](Cc2c[nH]c3ccccc23)NC(=O)[C@H](CCCNC(=N)N)NC(=O)[C@H](Cc2c[nH]c3ccccc23)NC(=O)[C@H](CCCNC(=N)N)NC(=O)[C@H](Cc2c[nH]c3ccccc23)NC(=O)[C@H](CCCNC(=N)N)NC(=O)[C@H](Cc2c[nH]c3ccccc23)NC(=O)[C@H](CCCNC(=N)N)NC(=O)[C@H](Cc2c[nH]c3ccccc23)NC(=O)[C@H](CCCNC(=N)N)NC(=O)[C@H](Cc2c[nH]c3ccccc23)NC(=O)[C@H](CCCNC(=N)N)NC(=O)[C@H](Cc2c[nH]c3ccccc23)NC(=O)[C@H](CCCNC(=N)N)NC(=O)[C@H](Cc2c[nH]c3ccccc23)NC1=O` gave a remaining activity of 1.4% (SRC; enzyme activity, inhibitor, radiometric; 5 µM).
`CC[C@H](C)[C@H](NC(=O)[C@H](CCC(=O)O)NC(=O)[C@@H](NC(=O)[C@H](CCC(N)=O)NC(=O)[C@@H](N)CCCCN)[C@@H](C)CC)C(=O)N[C@@H](CCCCN)C(=O)N[C@@H](CCCCN)C(=O)N[C@@H](Cc1ccccc1)C(=O)N[C@@H](CCCCN)C(=O)O` gave a remaining activity of about 25% (GJA1 (Homo sapiens, UniProt P17302); hemichannel charge transfer, whole-cell voltage clamp; HeLa-Cx43; 400 µM, intracellular, up to +70 mV; relative to: control).
`NC(=O)C[C@H](NC(=O)[C@H](CC(N)=O)NC(=O)[C@H](CCC(=O)O)NC(=O)[C@@H](N)CS)C(=O)O` gave a remaining activity of 80.8% (PPO3; enzyme activity, inhibitor; 25 µM).
With `O=C(Cc1c(-c2ccccc2)n[nH]c1-c1ccccc1)NO` the remaining activity was 81% (MMP9 (Homo sapiens, UniProt P14780); enzyme activity, inhibitor; 10 µM).
The remaining activity of `CC(=O)N[C@@H](Cc1c[nH]c2ccccc12)C(=O)N[C@@H](Cc1c[nH]c2ccccc12)C(=O)N[C@@H](Cc1c[nH]c2ccccc12)C(=O)N[C@@H](Cc1c[nH]c2ccccc12)C(=O)N[C@@H](Cc1c[nH]c2ccccc12)C(=O)N[C@@H](Cc1c[nH]c2ccccc12)C(=O)NCCCC[C@@H]1NC(=O)[C@H](CCCNC(=N)N)NC(=O)[C@H](CCCNC(=N)N)NC(=O)[C@H](CCCNC(=N)N)NC(=O)[C@H](CCCNC(=N)N)NC(=O)[C@H](CCCNC(=N)N)NC(=O)[C@H](CCCNC(=N)N)NC1=O` is reported as 141% (SRC; enzyme activity, inhibitor, radiometric; 5 µM).
For `O=C(CCCC[C@@H]1CCSS1)NCCC(=O)N[C@@H](Cc1cnc[nH]1)C(=O)O` (mixture of isomers), the remaining activity was 3.1% (Trpa1 (Mus musculus, UniProt Q8BLA8); ion current, inhibitor, patch clamp; CHO; 30 µM).
`COC(=O)CN1CCCc2cc3cc(C(=O)NC(Cc4ccc(C)cc4)C(=O)NCC=CS(=O)(=O)c4ccccc4)c(=O)oc3cc21` (stereo not drawn) gave a remaining activity of 53% (Cathepsin B (CTSB, Homo sapiens, UniProt P07858); enzyme activity, inhibitor; 5 µM, 60 min, added: Z-Arg-Arg-pNA; relative to: uninhibited control).
`N=C(N)NCCC[C@H](NC(=O)[C@@H](N)CS)C(=O)N[C@@H](CC(N)=O)C(=O)N[C@@H](CC(N)=O)C(=O)O` has a remaining activity of 72.9% (PPO3; enzyme activity, inhibitor; 50 µM).
`CC1(C)CCN(Cc2ccc(C(=O)NC[C@]3(O)CCCN(c4cc(NCc5ccccc5)ncn4)C3)c(O)c2)CC1` has a remaining activity of 102% (CSF1R (Homo sapiens, UniProt P07333); kinase activity, radiometric; 10 µM, added: 10 µM ATP).
